Assay results collected from several papers.
Numbered parts are unrelated; each lists some results of a single study.

Study 1
Target: Histone acetyltransferase KAT6A, winged helix 1, GST fusion (KAT6A, Homo sapiens, UniProt Q92794, residues 1-85)
Method: protein binding microarray
Molecule type: double-stranded DNA, one strand shown
Medium: in vitro
Tested at: not given
Setting: 8-mer, flanks averaged, mean of 2 arrays, mostly near background
Baseline: not given
Reading: higher = stronger binding
Construct (chain): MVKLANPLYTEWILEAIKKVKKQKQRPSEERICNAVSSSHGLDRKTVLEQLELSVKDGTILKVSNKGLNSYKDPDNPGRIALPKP
Sequence	E-score
ACAACAGT	-0.213
CAGGCGCG	0.311
TCGTATAA	-0.104
ACCTTAAT	-0.159
CGTCCACG	0.243
CCTTGCAA	-0.183
AGACGGTG	-0.00449
AACATTAG	-0.0903
CGTTTTCA	0.056
GCCCCGCA	0.278
AATCTACG	0.0276
CTTCATGC	0.0406
CGGCCGTC	0.448
CCAACGGA	0.0172
GAGACGCA	0.225
AGGATAGC	-0.0133
AACCACGC	0.147
ACTGGTCA	-0.089
ATCCGGTG	0.137

Study 2
Organism: Saccharomyces cerevisiae
Observed: binding
Method: yeast competitive growth sequencing
Molecule type: peptide
Strain: cyclin D1-Cln2 strain
Medium: peptide tiling library
Setting: pooled screen
Reading: direction not given
Molecule	enrichment score
AIRKMREDRWAVIAKM	-1.24
NARRSLNFGGSTGT	-0.0866
VKTKKRLNFDDK	-0.377
EAAPPTQEAQGETEPT	0.244
RRRIKLPESDSSED	1.98
RNRGPKLNAMLRLGVL	-3.33
RRRRLLFWDKETQI	-2.34
VRDLSYRLVFLACCVA	-0.9
NRLLKLFTRCLTPLVP	-2.02
HRRRLLFACSPPPASQ	-1.59
IFNKPECGRVQRAIFQ	-1.56

Study 3
Target: Interferon regulatory factor 5, full length, phosphomimetic (IRF5, Homo sapiens, UniProt Q13568-2, residues 1-514, K96S/S451D/S453D/S456D/S462D)
Method: protein-binding microarray
Molecule type: double-stranded DNA, one strand shown
Medium: in vitro
Tested at: 250 nM
Setting: 60-bp whole probe
Together with: salmon DNA 0.4 mg/ml
Baseline: random background probes
Reading: higher = stronger binding
All sequences stand within: GCCTAGCAC … GTCTTGATTCGCTTGACGCTGCTG
Sequence	log fluorescence [z-score]
TTAGTTATCCTTATCCTTTAGTGCTAG	0.724
TTCACTTTCTTTAACATATTGTGCTAG	3.77
TAAGGTATCGACTATCGGTTAGTGCTA	7.66
TTAGGTTTCGGTTTCTGTTAGTGCTAG	10.8
GACGTACTGAGACTGGAGACGTGCTAG	-0.465
GACGGTATCCACACTGGGGACGTGCTA	-0.302
GACGATATCGGGTATCGAGAGGTGCTA	2.41
TCATGTTTCTAATATTCTACTGTGCTA	1.4
AACGGACTGCTACTGCTGACGTGCTAG	-0.27
TTAGGTCTCGGTCTCGGCTAGTGCTAG	0.45
GACGATATCGGGTAACGAGACGTGCTA	1.99
TTAGGTATCGACTATCGGTTGGTGCTA	7.49
GACGGACTGCTTGTCCTGACGTGCTAG	-0.521
TTAGGTTTCGGTTTCGCTTAGTGCTAG	10.6
GACGGTATGGGTTTCGGGACGTGCTAG	2.39
TTAGGTCTCCTACTGCTGTAGTGCTAG	-0.682
GACGAACTGTGTATCGAGACGTGCTAG	0.725
TTAGATATCAGAGTGGATTAGTGCTAG	0.282
ATTTTTTTCATTATTGTTTCGTGCTAG	3.45
TTAGAACCGAGTATCGATTAGTGCTAG	6.49
TCAATTTTGTTTTTCATACTGTGCTAG	1.82
GACGATATCGGGTTTCGAGACGTGCTA	3.72
TTTAGGTCCCTTTTCATGCTGTGCTAG	0.113
TTAGATATCGGGGATCGATTAGTGCTA	1.04
TTCGGTTTCGGTATCGGTTAGTGCTAG	11

Study 4
Target: RING finger protein unkempt homolog, zinc fingers 1-6, GST-SBP tag (UNK, Homo sapiens, UniProt Q9C0B0, residues 30-357)
Sequence of UniProt Q9C0B0 (30-357, looked up): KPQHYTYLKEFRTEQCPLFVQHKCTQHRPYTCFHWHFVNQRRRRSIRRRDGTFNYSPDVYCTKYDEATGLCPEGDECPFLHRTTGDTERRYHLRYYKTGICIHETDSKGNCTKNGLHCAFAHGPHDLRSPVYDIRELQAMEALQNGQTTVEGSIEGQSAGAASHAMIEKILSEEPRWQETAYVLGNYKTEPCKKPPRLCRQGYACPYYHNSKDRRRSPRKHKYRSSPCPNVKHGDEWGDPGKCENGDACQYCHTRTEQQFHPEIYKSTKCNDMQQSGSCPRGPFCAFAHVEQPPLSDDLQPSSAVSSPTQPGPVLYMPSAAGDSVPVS
Method: RNA Bind-n-Seq
Molecule type: RNA
Medium: in vitro
Tested at: not given
Setting: RNA with constant flanks, human-mouse chimeric sites, ends assumed
Baseline: input RNA pool
Reading: higher = stronger binding
All sequences stand within: GGGAGUUCUACAGUCCGACGAUC … CAACAGAGGAUUGAGCAUCA
Sequence	bound/input enrichment [ratio]
GCAGGAUCUUCUAAGUACCAGUGGGACAUUAUGAAAUCCCUUGGGCUCUCUGAUGACGAGAUAGUAAAGUUUUCUGAAGCAGAGCACUGGCUUGAUUAUUUCCCACCACUGGCCGUUCAG	0.196
AGAUUCCCCCUCCUGAGACCUCCUCCGAAGUUGGAGUCUCUUACAGAUGGUUCAUCUCCUGUUAGCGUUUUAGUUUGGACCACACAACCUUGGACAAUUCCCGCCAACCAGGCAAUUUGC	2.98
GAUAGGAAAAGCUUGUUGGAGACCCGAUUGCAUGUCACUGGUAGAGACCUGAGGUGUCAAAUAGCUGAAACUUUCGGAUUUCAAGAAAAUUACAUCAAGAUCGUAAUAAAUAAGAAACAG	0.37
UGUGAACUGUCUCUUGAGAUCUAAAAACAAGAUGACUUUUCCUGGCACAUAUUUCAAAGCAAAGACUUUGUUGCCUGCUGCUUAUUGUCUAAUUUACAGGGAUAUUUAAUUUUGUCAGGU	0.16
AACUUCGUGCAUCGGUUUCCCUUUGUAGCUGUUUCAAUUGGCUUCCUUGUGAAUAAAGAGAUGGAGUUUGGAAUUGUGUACAGUUGUGUGGAAGAUAAGAUGUACACCGGCAGGAAAGGG	0.466
UAAAUCCUGUGCCAGCACUUCGCUCAUAAAGUUUUAAAUUCUGGACCAAUAGUGUUUGUUUCCUGAUUAUUGUAUCCAAUACUUUGCCUAGUAUGUAACUCAUGCUUACUGAUAAUAAAA	0.651
GGUGGGGGGUUGUCAUUCGUUUGAGCUGCUGAUUUUCAUGAGUCGCCUUCAAAACUCUCGUGUAGGGUUGACAAUGUGGGGGGGUGGGGGAUCCAGCUUAUUCUUUUAUUUUCAAGUCCA	0.705
UAAGUUAUUUUGUACAGCUUUGUAAAUUCUUAACAUUUUUAUAUUGCCAUGUUUAUUUUGUUUGGGUAAUUUGGUUCAUACAUGGCCAAACCAAAUAAAUGAACAUCUUUUUCAGUAAUU	1.09
CGGAGCCCUCCUCUCCCACAGGCCCAAGAUGUGACCCACCAGUGCCUUUUGUCUUCCUGUCAGCUCUAAUCAAUCAUCCUGUCCUCUCACGCCCACACCAAGUGCCCAAAGUGGGGAGGG	0.325
AAAGCCCAAGUAUUUUGAAAAAACUCGAACAGAUUUGACAAGGGUAGCCAGCUUGGAGUCUAGCAACUUGCCAAUGUGUUUACCAAUUUUGGGGGCUUGUUUUUCUUUCUUCUUUCAAAU	0.233
AAUUUCCUGUCAUACUUUUUAGACAUUCACAUCAGACGCCUUACUACCCUGGCCACAUUCUAGGUUUGUGUUAUUUCUCAGCUAUGGAUAUGAUCAAAUGAGAACACUGCUUAACUAAUG	0.616

Study 5
Target: Centromere-binding protein 1, full length, His-tagged (CBF1, Saccharomyces cerevisiae, UniProt P17106, residues 1-351)
Sequence of UniProt P17106 (whole entry, looked up): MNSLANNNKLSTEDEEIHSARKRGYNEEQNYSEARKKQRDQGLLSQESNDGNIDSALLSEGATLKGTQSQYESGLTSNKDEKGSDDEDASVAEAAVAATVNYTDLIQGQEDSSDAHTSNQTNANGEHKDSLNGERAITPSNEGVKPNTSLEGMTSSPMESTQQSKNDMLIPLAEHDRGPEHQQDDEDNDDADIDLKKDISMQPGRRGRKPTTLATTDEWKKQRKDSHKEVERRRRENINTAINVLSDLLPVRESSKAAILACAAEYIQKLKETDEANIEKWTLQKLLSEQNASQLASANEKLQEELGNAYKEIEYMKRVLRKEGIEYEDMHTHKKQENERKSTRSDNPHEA
Method: competition protein-binding microarray
Molecule type: double-stranded DNA, one strand shown
Medium: in vitro
Tested at: 2 µM
Setting: whole 60-bp probe, lowest competitor level
Together with: Pho4 competitor, 0.05 µM
Reading: higher = stronger binding
All sequences stand within: … GTCTTGATTCGCTTGACGCTGCTG
Sequence	fluorescence intensity
AAAGCGGTAATTTGAATAGTGGGTGCAGATATCTAT	82.5 a.u.
GTAAAAGTGGCAGCACACCTGATCTAATACTAGCTA	251 a.u.
AAGACCCCGGTAAAATTCGTGACGGATCATCGCCTA	65.2 a.u.
TAGGCGCAGACCGCGCTCGTGAAGCAGACCTCCCGG	61.3 a.u.
CTTTCCCGATCTTGTCTTGTGGGTGTAGCACATTTG	73.6 a.u.
AAAGCGGTAATTTGACACGTGTTTTCACATATCTAT	2050 a.u.
CGGGGTTAAGTTTGTCACTGGACTTGCTTGCAGCAG	69.6 a.u.
GCTTTAGTTGCTCTTCGCGTGGTGAATATTTGCAGA	84.9 a.u.
CTTTCCCGATCTTGACGCGTGGGTGTAGCACATTTG	84.4 a.u.
CGTCCTAGTGATTGTTGTGTGGGTGCCATGAGGAAG	90.4 a.u.
AGGCAGGCGAACATCAACGTGATGGTTACCAACAGC	256 a.u.
GTCGACGATACATACAGAGCTGTTACAAAGTTCCAT	66.5 a.u.
CGTCCTAGCGATTGAGATGTGGGTGCCATGAGGAAG	66.5 a.u.
CTTTCCCGATCTTGTACAGTGGGTGTAGCACATTTG	73.2 a.u.
GTCTTGTCTCATTGTCTCGTGGGTGTCCCCACTTCA	112 a.u.
TGCGCAACAACTTGCACAGTGGGTGTATGTCTAGAA	70.4 a.u.
GAAAGATGTAGAAAACTCGTGGAGGTAGGATTATAC	80.7 a.u.
TGCGCAACAACTTGTTCTGTGGGTGTATGTCTAGAA	72.1 a.u.
CGTCCTAGTGATTGCTTTGTGGGTGCCATGAGGAAG	85.5 a.u.
CTAACGAAGGTTTAGCACGTGTTTTACAAGCCAAGT	2210 a.u.

Some of these lines once more (study 1):
Sequence	E-score
CTTCATGC	0.0406
CGGCCGTC	0.448
CCAACGGA	0.0172
GAGACGCA	0.225
AGGATAGC	-0.0133
AACCACGC	0.147
ACTGGTCA	-0.089
